{"data": "Published values from different studies", "note": "Every numbered part comes from another study and shows a few of its results, in no order."}
{"data": "Set 1", "target": "Sal-like protein 4, full length isoform B (SALL4, Homo sapiens, UniProt Q9UJQ4-2, residues 1-616)", "technique": "universal PBM", "form": "double-stranded DNA, one strand shown", "matrix": "in vitro", "tested at": "not given", "notes": "8-mer, flanks averaged, mean of replicates", "direction": "higher = stronger binding", "Target sequence (chain)": "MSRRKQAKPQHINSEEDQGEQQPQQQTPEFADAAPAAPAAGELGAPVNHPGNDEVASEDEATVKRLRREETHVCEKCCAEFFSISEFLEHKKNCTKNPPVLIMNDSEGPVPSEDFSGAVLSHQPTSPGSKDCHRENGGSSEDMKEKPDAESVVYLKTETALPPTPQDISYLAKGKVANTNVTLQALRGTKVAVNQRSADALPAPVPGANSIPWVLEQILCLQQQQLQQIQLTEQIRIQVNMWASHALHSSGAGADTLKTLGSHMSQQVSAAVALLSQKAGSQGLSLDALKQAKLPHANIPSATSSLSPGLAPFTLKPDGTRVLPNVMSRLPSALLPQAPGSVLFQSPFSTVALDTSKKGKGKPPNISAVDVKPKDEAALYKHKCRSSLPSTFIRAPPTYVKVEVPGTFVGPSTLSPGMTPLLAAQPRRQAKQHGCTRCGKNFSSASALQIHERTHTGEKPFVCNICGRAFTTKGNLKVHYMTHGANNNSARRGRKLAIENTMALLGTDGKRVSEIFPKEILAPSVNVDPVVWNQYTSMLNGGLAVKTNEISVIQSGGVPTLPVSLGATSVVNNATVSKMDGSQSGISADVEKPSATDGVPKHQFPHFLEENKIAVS"}
{"Oligonucleotide": "AGTCGGAC", "E-score": -0.189}
{"Oligonucleotide": "AAACCTAA", "E-score": 0.0575}
{"Oligonucleotide": "AACGGATG", "E-score": -0.134}
{"Oligonucleotide": "CGAGGCAG", "E-score": -0.172}
{"Oligonucleotide": "CTTCGGTC", "E-score": -0.134}
{"Oligonucleotide": "GTCATTGA", "E-score": 0.197}
{"data": "Set 2", "target": "RNA binding protein fox-1 homolog 2, RRM domain, GST-SBP tag (RBFOX2, Homo sapiens, UniProt O43251-10, residues 100-194)", "technique": "RNA Bind-n-Seq", "form": "RNA", "matrix": "in vitro", "tested at": "365 nM", "notes": "natural RNA segment, single round, ends assumed", "reference": "no-protein control", "direction": "higher = stronger binding", "all sequences stand within": "GGGAGUUCUACAGUCCGACGAUC … UGGAAUUCUCGGGUGCCAA", "Target sequence (chain)": "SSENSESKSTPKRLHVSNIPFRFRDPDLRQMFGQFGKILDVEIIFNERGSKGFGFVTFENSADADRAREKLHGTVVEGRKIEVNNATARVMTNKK"}
{"Oligonucleotide": "CACAGCUUUAGUCACAAAAGUUAGUUUAGUUAUCUCAUUUCGCUUGGAGAUGGAAUUUCAGGAAGGGAUAUAUUAUUUAAGAUUAUUGUUUAAUUACAAGAAUUUUAAAA", "RBNS enrichment (R)": 0.823}
{"Oligonucleotide": "CAUGUGUACUGCAGUUGUGCCUUUUCUACAACACUGCAUUGAAUAAACUUGUCCGAAGUAUCGUUUUUCAGAGUCUGGGAUGCCUAAUAAUUUCCUGGUUUUCCUCUCGU", "RBNS enrichment (R)": 0.356}
{"Oligonucleotide": "UUAGCACAGAUUUUAAUUGUCAUGGUUACAAACUACAGACCUGCUUUUUGAAAUGAAAUUUAAACAUAAAAAUGGAACUGUGUUCUCUGUCUCUUUACUGAAGAUAAAGG", "RBNS enrichment (R)": 0.453}
{"Oligonucleotide": "UAUAAAUAUUUCCUAGCAAGGAUCAUAAGCCCAAUUUCCGGAUUUGCCCCUCUGAGAAGCAUGAAUGAGCUCACAUUAGUACUGAGAAGUUUGAAGACCAAGAAAUCCUG", "RBNS enrichment (R)": 7.05}
{"Oligonucleotide": "UGUCAAGGCAGAAUAUUACUGAGAAUGAUCCUGUUCAACCUCCUAGUGCCUCUACUGAAUUAUUCCUCUUUUAAAUGGUUAAUGAACCAAUAAUUUUUAAAUCAUACCAA", "RBNS enrichment (R)": 0.532}
{"Oligonucleotide": "ACAUAUGUAAUAUACCCUUAUAUUAUGUAUGAGGGAUUUAAAAUAUUGAAAUGGUUUCCUAGUGGUAGUAGGAAGACUGAAUAAGAACAACCUAUUUUCUGGUUGUUGUC", "RBNS enrichment (R)": 0.263}
{"data": "Set 3", "target": "Histone acetyltransferase KAT6A, winged helix 1, GST fusion (KAT6A, Homo sapiens, UniProt Q92794, residues 1-85)", "technique": "protein binding microarray", "form": "double-stranded DNA, one strand shown", "matrix": "in vitro", "tested at": "not given", "notes": "8-mer, flanks averaged, mean of 2 arrays, mostly near background", "reference": "not given", "direction": "higher = stronger binding", "Target sequence (chain)": "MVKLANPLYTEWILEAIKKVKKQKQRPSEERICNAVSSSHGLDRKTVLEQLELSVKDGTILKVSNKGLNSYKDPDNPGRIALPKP"}
{"Oligonucleotide": "AATACACT", "E-score": -0.274}
{"Oligonucleotide": "AAAGACAA", "E-score": -0.0832}
{"Oligonucleotide": "CTCGAGCC", "E-score": -0.0384}
{"Oligonucleotide": "CCGTCACG", "E-score": 0.373}
{"Oligonucleotide": "CGATTAAA", "E-score": -0.00329}
{"Oligonucleotide": "AGAGTATC", "E-score": -0.113}
{"data": "Single results of other studies"}
{"Substance": "PhoQ, residues 284 288 289 292 302 303 AQGLTV", "target": "PhoP, residues 12 14 15 18 19 NIMAP (Escherichia coli, UniProt P23836)", "test": "Sort-seq, refers to: YFP reporter", "test system": "E. coli", "setting": "PhoQ-PhoP variant library, with: 10 µM Mg2+", "scale": "reference: high Mg2+ state, higher = stronger signaling", "measurement": "fold induction", "result": 2.08}
{"note": "Some of these lines once more (set 3):"}
{"Oligonucleotide": "AATACACT", "E-score": -0.274}
{"Oligonucleotide": "CTCGAGCC", "E-score": -0.0384}
